Assay results collected from several papers.
Compare with care: the assays were run in different laboratories. ± gives the spread as reported.

Structure (SMILES) = O=C(NCC1OC2CCC=CCCC2O1)c1ccc([18F])nc1 (stereo not drawn); test system = mouse plasma; setting = 2 h, 37 °C; endpoint = intact tracer remaining; value = 79 ± 0.07%
Structure (SMILES) = O=C([O-])CN1CCN(CC(=O)[O-])CCN(CC(=O)NCC2CCC(C(=O)NC(Cc3ccc4ccccc4c3)C(=O)NCCCCC(NC(=O)NC(CCC(=O)O)C(=O)O)C(=O)O)CC2)CCN(CC(=O)[O-])CC1.[44Sc+3] (stereo not drawn); test = transchelation stability; setting = 2 h, 37 °C, together with: DTPA 10 mM; endpoint = intact complex; value = 97 ± 0.8%
Structure (SMILES) = O=C(NCCCN(CCCCN(CCCNC(=O)c1cccc(=O)n1[O-])C(=O)c1cccc(=O)n1[O-])C(=O)c1cccc(=O)n1[O-])c1cccc(=O)n1[O-].[89Zr+4]; test = radio-TLC; test system = PBS; setting = 5 d, pH 7.4, 37 °C, together with: Ga^3+ 10-fold excess; endpoint = intact complex; value = 97.3 ± 1.9%
Structure (SMILES) = C[C@]12CC[C@@H]3c4ccc(OCC(=O)N[C@@H](CCCCNC(=O)CN5CCN(CC(=O)[O-])CCN(CC(=O)[O-])CCN(CC(=O)[O-])CC5)C(=O)O)cc4CC[C@H]3[C@@H]1CCC2=O.[177Lu+3]; test = radio-HPLC; test system = human plasma; setting = 4 h, 37 °C; endpoint = intact radiotracer; value = > 80%
Structure (SMILES) = C[C@@H](O)[C@@H]1NC(=O)[C@H](CCCCN)NC(=O)[C@@H](Cc2ccc(NC(N)=O)cc2)NC(=O)[C@H](Cc2ccc(NC(=O)[C@@H]3CC(=O)NC(=O)N3)cc2)NC(=O)[C@H](NC(=O)[C@H](Cc2ccc(Cl)cc2)NC(=O)CN2CCN(CC(=O)O)CCN(CC(=O)O)CCN(CC(=O)O)CC2)CSSC[C@@H](C(=O)N[C@H](Cc2ccc(O)cc2)C(N)=O)NC1=O; test = radio-TLC; test system = mouse serum; setting = 5 d, 37 °C; endpoint = intact radioligand; value = > 95%
Structure (SMILES) = CC1=CC(C)=[N+]2C1=C(CCCC(=O)NCCCCCC(=O)NCCCC[C@H](NC(=O)N[C@@H](CCC(=O)O)C(=O)O)C(=O)O)c1c(C)cc(C)n1[B-]2(F)[18F] (stereo partly drawn); test = HPLC; test system = PBS; setting = 2 h, pH 7.4; endpoint = intact radiotracer; value = > 97%
Structure (SMILES) = N[C@@H]1CCCC[C@H]1N.O=C1[O][Pt]2([O]C1=O)[O]C(=O)C(=O)[O]2; test system = PBS; setting = 24 h, pH 7.4, 37 °C; endpoint = intact compound remaining; value = < 45%
Structure (SMILES) = O=C([O-])CN1CCN(CC(=O)[O-])CCN(C(CCC(=O)NCCCCCNC(=O)CCC(NC(=O)NC(CCC(=O)O)C(=O)O)C(=O)O)C(=O)O)CC1.[64Cu+2] (stereo not drawn); test = radio-HPLC; test system = PBS; setting = 12 h, room temperature; endpoint = intact complex; value = 93.5%
Structure (SMILES) = CC(=O)N[C@@H](CCCCN)C(=O)NCCC(=O)N[C@@H](Cc1ccccc1)C(=O)N[C@@H](CO)C(=O)N[C@@H](CO)C(=O)N[C@@H](CCCCN)C(=O)N[C@@H](CO)C(=O)N[C@@H](CCC(=O)O)C(=O)N[C@@H](Cc1ccc(O)cc1)C(=O)N[C@@H](CCC(N)=O)C(=O)N[C@@H](CC(C)C)C(=O)NCCOCCOCC(=O)N[C@@H](Cc1ccccc1)C(=O)N[C@@H](Cc1ccc(O)cc1)C(=O)N[C@@H](Cc1c[nH]c2ccccc12)C(=O)N[C@@H](CO)C(=O)N[C@@H](C)C(=O)N[C@H](C(=O)N[C@H](C(N)=O)[C@@H](C)O)C(C)C; test = RP-HPLC; test system = 25% fetal bovine serum; setting = 1 mg/mL, 42 h, 37 °C; how to read = relative to: initial amount; endpoint = intact peptide remaining; value = 60%
Structure (SMILES) = NC12CNCCNCC(NCc3ccc(CNC(=O)CCCC(=O)NCc4ccc(-c5nncnn5)cc4)cc3)(CNCCNC1)CNCCNC2.[64Cu+2]; test system = human serum; setting = 4 h, 37 °C; endpoint = intact compound; value = 81.2 ± 3.7%
Structure (SMILES) = N[C@@H](CSC(F)(F)[18F])C(=O)O; test system = PBS; setting = 2 h, pH 7.4, 37 °C; endpoint = intact tracer; value = > 95%
Structure (SMILES) = C[C@@H](NC(=O)[C@@H](Cc1ccccc1)NC(=O)[C@@H](Cc1c[nH]cn1)NC(=O)[C@@H](Cc1ccc(O)cc1)NC(=O)[C@@H](CCC(=O)O)NC(=O)[C@@H](CO)NC(=O)[C@H](N)CCC(N)=O)C(=O)O; test = HPLC; test system = human serum; setting = 1 mg/mL, 2 h, 37 °C; endpoint = intact peptide remaining; value = 100%

For quick reference, copied from above:
Structure (SMILES) = O=C(NCCCN(CCCCN(CCCNC(=O)c1cccc(=O)n1[O-])C(=O)c1cccc(=O)n1[O-])C(=O)c1cccc(=O)n1[O-])c1cccc(=O)n1[O-].[89Zr+4]; test = radio-TLC; test system = PBS; setting = 5 d, pH 7.4, 37 °C, together with: Ga^3+ 10-fold excess; endpoint = intact complex; value = 97.3 ± 1.9%
Structure (SMILES) = CC1=CC(C)=[N+]2C1=C(CCCC(=O)NCCCCCC(=O)NCCCC[C@H](NC(=O)N[C@@H](CCC(=O)O)C(=O)O)C(=O)O)c1c(C)cc(C)n1[B-]2(F)[18F] (stereo partly drawn); test = HPLC; test system = PBS; setting = 2 h, pH 7.4; endpoint = intact radiotracer; value = > 97%
